Assay results of several laboratories.
Numbered parts are unrelated; each lists some results of a single study.
Sequence of UniProt Q9NQU5 (whole entry, looked up): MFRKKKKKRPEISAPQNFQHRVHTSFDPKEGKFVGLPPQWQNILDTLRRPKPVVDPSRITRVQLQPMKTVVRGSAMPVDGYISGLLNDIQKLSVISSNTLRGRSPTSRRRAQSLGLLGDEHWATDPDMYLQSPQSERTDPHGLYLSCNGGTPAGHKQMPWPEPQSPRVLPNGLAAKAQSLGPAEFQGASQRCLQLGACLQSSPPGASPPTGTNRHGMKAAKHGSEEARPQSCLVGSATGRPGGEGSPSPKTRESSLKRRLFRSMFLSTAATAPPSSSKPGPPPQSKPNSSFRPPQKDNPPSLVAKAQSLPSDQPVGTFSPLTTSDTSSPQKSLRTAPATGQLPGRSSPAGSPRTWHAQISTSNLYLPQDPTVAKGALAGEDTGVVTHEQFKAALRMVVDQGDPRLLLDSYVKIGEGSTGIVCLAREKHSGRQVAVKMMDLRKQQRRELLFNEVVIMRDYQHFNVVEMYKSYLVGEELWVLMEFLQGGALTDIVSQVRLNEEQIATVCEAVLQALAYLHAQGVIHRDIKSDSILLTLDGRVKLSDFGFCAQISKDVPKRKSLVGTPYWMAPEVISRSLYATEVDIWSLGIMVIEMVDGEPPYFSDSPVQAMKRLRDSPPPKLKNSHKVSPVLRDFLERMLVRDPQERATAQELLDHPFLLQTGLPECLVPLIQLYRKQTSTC
Sequence of UniProt Q9C098 (whole entry, looked up): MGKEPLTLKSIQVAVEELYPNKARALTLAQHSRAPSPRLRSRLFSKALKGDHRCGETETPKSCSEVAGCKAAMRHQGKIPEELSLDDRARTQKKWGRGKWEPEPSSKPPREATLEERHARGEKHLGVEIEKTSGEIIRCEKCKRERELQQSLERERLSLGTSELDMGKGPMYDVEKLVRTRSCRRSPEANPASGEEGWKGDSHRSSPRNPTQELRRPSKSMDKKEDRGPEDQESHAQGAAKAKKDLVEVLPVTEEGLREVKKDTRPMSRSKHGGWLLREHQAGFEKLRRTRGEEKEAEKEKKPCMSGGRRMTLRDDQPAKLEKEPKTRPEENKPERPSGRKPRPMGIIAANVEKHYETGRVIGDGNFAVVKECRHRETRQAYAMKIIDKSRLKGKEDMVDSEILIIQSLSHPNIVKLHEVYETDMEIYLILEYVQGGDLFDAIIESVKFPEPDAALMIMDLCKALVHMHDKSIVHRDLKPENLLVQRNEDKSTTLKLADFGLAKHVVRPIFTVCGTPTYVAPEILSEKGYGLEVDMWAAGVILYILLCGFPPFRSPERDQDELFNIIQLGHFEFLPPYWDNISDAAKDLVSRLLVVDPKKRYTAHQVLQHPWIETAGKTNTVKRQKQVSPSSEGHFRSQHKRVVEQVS
Sequence of UniProt Q00532 (whole entry, looked up): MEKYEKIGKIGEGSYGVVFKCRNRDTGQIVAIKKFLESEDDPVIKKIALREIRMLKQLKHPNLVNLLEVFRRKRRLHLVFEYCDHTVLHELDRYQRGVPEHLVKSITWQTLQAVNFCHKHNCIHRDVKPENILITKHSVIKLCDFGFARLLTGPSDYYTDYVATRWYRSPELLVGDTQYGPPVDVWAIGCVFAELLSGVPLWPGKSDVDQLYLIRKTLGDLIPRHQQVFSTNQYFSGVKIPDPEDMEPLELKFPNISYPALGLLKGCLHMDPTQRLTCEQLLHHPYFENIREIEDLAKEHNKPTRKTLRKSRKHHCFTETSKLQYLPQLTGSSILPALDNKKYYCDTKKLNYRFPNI

Study 1 — technique: universal PBM; form: double-stranded DNA, one strand shown; sample: in vitro; tested at: not given; direction: higher = stronger binding
Target: Sal-like protein 4, full length isoform B (SALL4, Homo sapiens, UniProt Q9UJQ4-2, residues 1-616)
Setting: 8-mer, flanks averaged, mean of replicates
`ATTTCAAC` gave an E-score of 0.235.
`CACGCTGC` has an E-score of -0.24.
For `ATGCGCGA`, the E-score was -0.11.
`ATGTCCTA` gave an E-score of 0.0593.
For `CAGTGACG`, the E-score was -0.108.
The E-score of `GATTGAGC` is reported as 0.0226.
`GCCTCCAC` has an E-score of -0.229.
`CACCACGG` has an E-score of -0.278.

Study 2 — effect on: enzyme activity; action: inhibitor; tested at: 0.5 µM; relative to: control
Target: Myosin light chain kinase, smooth muscle (MYLK, Homo sapiens, UniProt Q15746)
Sequence of UniProt Q15746 (whole entry, looked up): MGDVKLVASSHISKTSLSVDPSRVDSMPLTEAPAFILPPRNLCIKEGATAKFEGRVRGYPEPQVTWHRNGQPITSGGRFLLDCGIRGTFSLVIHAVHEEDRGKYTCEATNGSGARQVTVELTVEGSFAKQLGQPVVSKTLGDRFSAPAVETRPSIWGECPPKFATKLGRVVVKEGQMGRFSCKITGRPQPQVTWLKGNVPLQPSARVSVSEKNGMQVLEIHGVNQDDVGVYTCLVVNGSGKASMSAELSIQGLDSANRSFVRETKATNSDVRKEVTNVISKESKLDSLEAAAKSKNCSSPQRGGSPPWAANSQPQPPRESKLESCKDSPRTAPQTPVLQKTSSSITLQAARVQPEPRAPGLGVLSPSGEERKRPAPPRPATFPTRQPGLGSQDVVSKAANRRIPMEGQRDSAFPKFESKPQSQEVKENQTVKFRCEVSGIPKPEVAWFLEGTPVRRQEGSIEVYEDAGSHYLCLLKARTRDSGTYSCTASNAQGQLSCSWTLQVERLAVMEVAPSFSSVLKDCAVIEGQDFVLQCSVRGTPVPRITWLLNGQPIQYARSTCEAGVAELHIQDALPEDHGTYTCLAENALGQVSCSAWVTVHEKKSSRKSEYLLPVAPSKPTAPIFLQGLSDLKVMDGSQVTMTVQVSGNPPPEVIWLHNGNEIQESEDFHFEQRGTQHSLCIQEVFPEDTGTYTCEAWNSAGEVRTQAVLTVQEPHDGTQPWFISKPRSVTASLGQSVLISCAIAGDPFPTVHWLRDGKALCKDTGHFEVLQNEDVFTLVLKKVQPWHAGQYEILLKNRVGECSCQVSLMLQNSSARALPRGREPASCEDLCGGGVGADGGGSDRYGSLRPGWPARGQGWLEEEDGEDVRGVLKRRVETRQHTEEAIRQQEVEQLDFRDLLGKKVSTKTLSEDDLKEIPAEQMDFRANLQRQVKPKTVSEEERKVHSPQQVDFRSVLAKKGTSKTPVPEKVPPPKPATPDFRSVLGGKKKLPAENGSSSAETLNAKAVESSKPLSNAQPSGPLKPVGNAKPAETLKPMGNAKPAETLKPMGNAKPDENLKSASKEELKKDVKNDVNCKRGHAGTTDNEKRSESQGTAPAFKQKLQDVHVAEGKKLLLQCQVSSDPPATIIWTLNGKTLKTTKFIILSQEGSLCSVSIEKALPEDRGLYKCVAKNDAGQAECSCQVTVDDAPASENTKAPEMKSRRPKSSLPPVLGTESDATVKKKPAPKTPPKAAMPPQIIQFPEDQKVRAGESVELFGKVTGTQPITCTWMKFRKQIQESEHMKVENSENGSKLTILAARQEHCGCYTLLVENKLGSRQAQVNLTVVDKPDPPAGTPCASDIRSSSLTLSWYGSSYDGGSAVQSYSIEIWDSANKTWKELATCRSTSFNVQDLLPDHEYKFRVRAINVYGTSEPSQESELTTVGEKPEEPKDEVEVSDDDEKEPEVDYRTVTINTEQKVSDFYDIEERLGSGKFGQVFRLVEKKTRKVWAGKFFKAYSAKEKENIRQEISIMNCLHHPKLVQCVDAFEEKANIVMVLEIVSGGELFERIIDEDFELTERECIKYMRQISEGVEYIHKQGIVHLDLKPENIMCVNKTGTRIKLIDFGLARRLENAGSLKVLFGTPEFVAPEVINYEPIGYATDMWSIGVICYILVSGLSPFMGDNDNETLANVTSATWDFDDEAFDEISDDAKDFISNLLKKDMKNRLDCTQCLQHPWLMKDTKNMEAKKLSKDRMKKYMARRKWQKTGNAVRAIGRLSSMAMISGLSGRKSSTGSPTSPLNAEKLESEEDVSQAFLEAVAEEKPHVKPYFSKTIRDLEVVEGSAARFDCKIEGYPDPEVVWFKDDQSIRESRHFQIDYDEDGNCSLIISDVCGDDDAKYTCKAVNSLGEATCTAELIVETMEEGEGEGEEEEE
`Cc1cc2ncc(-c3ccccc3)nc2cc1C` gave a remaining activity of 102%.
`O=c1cc(-c2cccc3c2Sc2ccccc2S3)oc(N2CCOCC2)c1` has a remaining activity of 102%.
With `COc1cc2ncnc(Nc3ccc(O)c(Br)c3)c2cc1OC` the remaining activity was 84.6%.
`CN(C)C[C@H]1CCn2c(c(C3=C(c4cn(C)c5ccccc45)C(=O)NC3=O)c3ccccc32)C1` gave a remaining activity of 84%.
The remaining activity of `Cn1nc2c3c(cccc31)C(=O)c1ccccc1-2` is reported as 77.4%.
With `Cc1nc2cc3nc(-c4cccs4)cnc3cc2n1C` the remaining activity was 97%.
`COc1cc2ncnc(Nc3cccc(Cl)c3)c2cc1OC` has a remaining activity of 89%.
For `Cc1cn(-c2cc(NC(=O)c3ccc(C)c(Nc4nccc(-c5cccnc5)n4)c3)cc(C(F)(F)F)c2)cn1`, the remaining activity was 93.3%.
With `O=C1C(Cl)=C(N2C(=O)CCC2=O)C(=O)c2ccccc21` the remaining activity was 99.4%.
`CCN(CC)C(=O)c1ccc(Nc2nc(OCC3CCCCC3)c3[nH]cnc3n2)cc1` gave a remaining activity of 91.6%.
With `N#Cc1c(NC(=O)c2cccc3ccccc23)sc2c1CCCC2` the remaining activity was 98.7%.

Study 3 — technique: competition with immobilised ligand; tested at: 1 µM
Structure (SMILES): O=C(O)[C@H]1[C@H](Cn2nnc3ccccc3c2=O)CC[C@@H]1C(=O)c1ccc(OCCC2CCOCC2)cc1
It gave 99% for remaining binding (Cyclin-dependent kinase-like 1 (CDKL1, Homo sapiens, UniProt Q00532); binding).
It gave 100% for remaining binding (Serine/threonine-protein kinase PAK 6 (PAK6, Homo sapiens, UniProt Q9NQU5); cell-free assay).
It gave 98% for remaining binding (Serine/threonine-protein kinase DCLK3 (DCLK3, Homo sapiens, UniProt Q9C098); cell-free assay).

Study 4 — technique: protein-binding microarray; form: double-stranded DNA, one strand shown; sample: in vitro; tested at: 0.8 µM; setting: whole 60-bp probe, no competitor; direction: higher = stronger binding; shared flanks, not repeated: … GTCTTGATTCGCTTGACGCTGCTG
Target: Centromere-binding protein 1, full length, N-terminal tag (CBF1, Saccharomyces cerevisiae, UniProt P17106, residues 1-351)
Sequence of UniProt P17106 (whole entry, looked up): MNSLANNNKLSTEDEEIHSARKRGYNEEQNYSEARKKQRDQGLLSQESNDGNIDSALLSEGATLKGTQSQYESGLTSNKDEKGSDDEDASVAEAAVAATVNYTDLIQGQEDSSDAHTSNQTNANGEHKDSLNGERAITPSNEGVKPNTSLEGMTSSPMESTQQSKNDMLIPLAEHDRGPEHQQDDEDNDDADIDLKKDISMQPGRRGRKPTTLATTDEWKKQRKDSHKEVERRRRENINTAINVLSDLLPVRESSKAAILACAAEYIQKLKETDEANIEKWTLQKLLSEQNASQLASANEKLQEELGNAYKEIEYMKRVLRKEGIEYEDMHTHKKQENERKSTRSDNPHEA
The fluorescence intensity of `GAACCACACGATTATCACGACTACTACCATAATTAG` is reported as 565 a.u.
`CTACAAATAAAGTTGCATGTGGATTATTATGTTTTC` has a fluorescence intensity of 673 a.u.
`CTAGGATTCGGACTCCACGTTAATTGACAGTGATTC` has a fluorescence intensity of 569 a.u.
`CCTAACTACTATATAAATGATCAATAGCTTCGTACA` has a fluorescence intensity of 519 a.u.
`GAACCGGTTCACCTTTGCGTGGTCTAGTGCATATAG` has a fluorescence intensity of 522 a.u.
`TGTACGAAGCTATCACGTGTGTTTATAGTAGTTAGG` gave a fluorescence intensity of 6650 a.u.
With `CTATGCAATCACCGTGACACCTTAAATATTTGCTTC` the fluorescence intensity was 730 a.u.
The fluorescence intensity of `GAAAAAGTGACATATCACATGTATGGTAGTATCTAG` is reported as 1440 a.u.

A few entries again (study 4):
`CCTAACTACTATATAAATGATCAATAGCTTCGTACA` has a fluorescence intensity of 519 a.u.
`GAACCGGTTCACCTTTGCGTGGTCTAGTGCATATAG` has a fluorescence intensity of 522 a.u.
`TGTACGAAGCTATCACGTGTGTTTATAGTAGTTAGG` gave a fluorescence intensity of 6650 a.u.
